# Measured values collected from several papers.
# Compare with care: the assays were run in different laboratories.
SMILES,organism,assay,system,setting,scale,measurement,result
CC[C@H](C)[C@H](NC(=O)[C@H](C)NC(=O)[C@H](CCCCN)NC(=O)[C@H](CC(C)C)NC(=O)[C@H](C)NC(=O)[C@@H](NC(=O)[C@H](Cc1c[nH]cn1)NC(=O)[C@H](CC(C)C)NC(=O)[C@@H](NC(=O)[C@@H](NC(=O)[C@H](CCCCN)NC(=O)[C@H](C)NC(=O)[C@H](C)NC(=O)[C@H](CO)NC(=O)[C@H](CCCCN)NC(=O)[C@H](Cc1ccccc1)NC(=O)[C@@H](NC(=O)[C@H](CCCCN)NC(=O)[C@H](CC(C)C)NC(=O)[C@H](Cc1ccccc1)NC(=O)[C@H](CO)NC(=O)[C@H](CCCCN)NC(=O)[C@H](Cc1c[nH]c2ccccc12)NC(=O)[C@H](CCCCN)NC(C)=O)[C@@H](C)O)[C@@H](C)O)C(C)C)[C@@H](C)O)C(=O)N[C@@H](CO)C(=O)N[C@@H](CO)C(N)=O,Acinetobacter baumannii,,IPM-R,87 strains,,MIC geometric mean,3.47 µg/mL
CCCCc1ccc(CNc2nc(N(C)C)nc(N(C)C)c2/N=N/c2ccc(Cl)cc2)cc1,Plutella xylostella,leaf dipping,,3.13 mg/L,,mortality,33.3%
CNC(=O)c1cc(Cl)cc(C)c1NC(=O)c1cc(Br)nn1-c1ncccc1Cl,Plutella xylostella,larvicidal activity,Raphanus sativus open field,"25 ppm, 72 h, wettable granule formulation",,mortality,92.3%
Nc1ncnc2c1ncn2[C@@H]1O[C@@H]2COP(=O)(O)O[C@H]3[C@@H](O)[C@H](n4cnc5c(=O)[nH]cnc54)O[C@@H]3COP(=O)(O)O[C@H]2[C@H]1O,Zika virus,"downregulated Reactome pathway, RNA sequencing, measured: Smooth Muscle Contraction (R-HSA-445355)",HFF-1,,relative to: ZIKV-infected untreated,fold enrichment,16.4
Nc1nc(O)c2ncn(COC(CO)CO)c2n1,human cytomegalovirus,viral cytopathic effect,"HEL, AD-169",,,EC50,4.33 µM
COC(=O)[C@]1(C)CC[C@]2(C)CC[C@]3(C)C4=CC=C5C(=CC(=O)C(O)=C5C)[C@]4(C)CC[C@@]3(C)[C@@H]2C1,Drosophila melanogaster,fluorescence,,"liquid food, 40 µg/mL, first instar larvae",relative to: solvent,fluorescein ingestion,-47.3%
COc1cc2ccc3oc([N+](=O)[O-])cc3c2cc1OC,Mycobacterium marinum,REMA,ATCC BAA-535,,,MIC90,0.016 µg/mL
CS(=O)(=O)CCCn1c(Cn2c(=O)n(CC(F)(F)F)c3ccncc32)cc2cc(Cl)ccc21,respiratory syncytial virus,RT-qPCR,"hospitalized infants 1-24 months, nasal swab","oral, 1-9 mg/kg daily, day 2, all doses combined",relative to: baseline,LS mean viral load change,-1.44 log10 copies/mL
Cl.N=C(CC(O)c1cc2c(F)cc(F)cc2c2cc(C(F)(F)F)ccc12)Nc1ccc(Br)cc1 (stereo not shown),Plasmodium berghei,Peters test,"ANKA, mice","oral, 4 x 30 mg/kg",,mean survival time,30 days
CC(C)CNC(=O)[C@@H](N)Cc1ccc(OP(=O)(O)CO[C@H](CO)Cn2cnc3c(N)ncnc32)cc1,human cytomegalovirus,viral replication,,,,IC50,0.29 µM
CS(=O)(=O)OCCN(CCBr)c1c(C(=O)NCCO)cc([N+](=O)[O-])cc1[N+](=O)[O-],Homo sapiens,"cell viability, resazurin or CellTiter-Glo","sample A BCP-ALL PDX cells, ex vivo",,,IC50,32.5 µM
O=C(NNc1ccc(Cl)c(Cl)c1)c1nnc(C23CC4CC(CC(C4)C2)C3)o1,Botryosphaeria dothidea,"fungal growth, inhibitor",,50 µg/mL,,inhibition,100%
CC[C@H](C)[C@H](NC(=O)[C@H](CC(N)=O)NC(=O)[C@H](CCCCN)NC(=O)[C@H](CC(=O)O)NC(=O)[C@H](Cc1ccc(O)cc1)NC(=O)[C@H](Cc1ccc(O)cc1)NC(=O)[C@H](Cc1ccc(O)cc1)NC(=O)[C@H](CCCNC(=N)N)NC(=O)[C@H](CC(C)C)NC(=O)CNC(=O)[C@H](CCCNC(=N)N)NC(=O)[C@@H](N)CO)C(=O)N[C@H](C(=O)N[C@@H](Cc1c[nH]cn1)C(=O)N[C@@H](CCCCN)C(=O)N[C@H](C(=O)N[C@@H](C)C(=O)NCC(=O)N[C@@H](CCCCN)C(=O)N[C@@H](CCCNC(=N)N)C(=O)N[C@@H](Cc1ccc(O)cc1)C(=O)N[C@H](C(=O)N[C@@H](Cc1ccc(O)cc1)C(=O)N[C@@H](CCCNC(=N)N)C(=O)N[C@@H](Cc1ccccc1)C(=O)N[C@H](C(=O)O)C(C)C)C(C)C)[C@@H](C)O)[C@@H](C)CC,Micrococcus luteus,,NCTC 2665,,,MBC,64 µg/mL

# A few entries again:
SMILES,organism,assay,system,setting,scale,measurement,result
CCCCc1ccc(CNc2nc(N(C)C)nc(N(C)C)c2/N=N/c2ccc(Cl)cc2)cc1,Plutella xylostella,leaf dipping,,3.13 mg/L,,mortality,33.3%
